Measured values from different studies.
A part holds a random share of what one study measured. “And” joins repeats or separate records; there may be more than shown.
UniProt O43353, sequence (whole entry, looked up): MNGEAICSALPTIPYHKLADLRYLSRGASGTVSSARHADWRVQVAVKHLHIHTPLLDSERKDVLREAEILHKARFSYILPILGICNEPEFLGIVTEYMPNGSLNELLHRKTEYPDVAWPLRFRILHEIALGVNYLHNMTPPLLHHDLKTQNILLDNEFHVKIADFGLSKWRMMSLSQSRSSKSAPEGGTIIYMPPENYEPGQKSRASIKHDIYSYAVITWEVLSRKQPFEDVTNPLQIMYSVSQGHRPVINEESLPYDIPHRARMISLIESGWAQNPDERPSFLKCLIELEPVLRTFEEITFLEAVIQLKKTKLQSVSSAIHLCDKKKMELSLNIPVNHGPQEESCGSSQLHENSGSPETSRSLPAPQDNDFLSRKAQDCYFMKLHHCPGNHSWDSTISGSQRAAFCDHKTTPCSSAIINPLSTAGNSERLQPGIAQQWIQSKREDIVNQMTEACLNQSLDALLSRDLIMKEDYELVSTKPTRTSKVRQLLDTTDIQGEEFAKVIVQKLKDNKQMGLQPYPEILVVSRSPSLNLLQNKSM
UniProt Q92630, sequence (whole entry, looked up): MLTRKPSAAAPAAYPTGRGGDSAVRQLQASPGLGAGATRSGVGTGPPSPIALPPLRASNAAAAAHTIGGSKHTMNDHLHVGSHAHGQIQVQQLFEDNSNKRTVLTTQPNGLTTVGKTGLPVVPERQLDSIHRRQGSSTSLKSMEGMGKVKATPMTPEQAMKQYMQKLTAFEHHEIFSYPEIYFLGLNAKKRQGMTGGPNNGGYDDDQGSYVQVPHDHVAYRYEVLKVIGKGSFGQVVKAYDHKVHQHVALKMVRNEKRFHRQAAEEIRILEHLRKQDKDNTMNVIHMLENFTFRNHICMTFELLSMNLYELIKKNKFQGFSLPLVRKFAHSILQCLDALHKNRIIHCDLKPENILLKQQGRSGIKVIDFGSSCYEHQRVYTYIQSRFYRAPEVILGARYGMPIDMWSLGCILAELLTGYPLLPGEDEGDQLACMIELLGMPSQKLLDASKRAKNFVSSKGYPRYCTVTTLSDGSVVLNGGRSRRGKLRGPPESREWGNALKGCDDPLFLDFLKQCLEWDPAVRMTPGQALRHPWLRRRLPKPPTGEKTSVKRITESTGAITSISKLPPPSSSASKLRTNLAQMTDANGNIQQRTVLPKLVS
UniProt P15735, sequence (whole entry, looked up): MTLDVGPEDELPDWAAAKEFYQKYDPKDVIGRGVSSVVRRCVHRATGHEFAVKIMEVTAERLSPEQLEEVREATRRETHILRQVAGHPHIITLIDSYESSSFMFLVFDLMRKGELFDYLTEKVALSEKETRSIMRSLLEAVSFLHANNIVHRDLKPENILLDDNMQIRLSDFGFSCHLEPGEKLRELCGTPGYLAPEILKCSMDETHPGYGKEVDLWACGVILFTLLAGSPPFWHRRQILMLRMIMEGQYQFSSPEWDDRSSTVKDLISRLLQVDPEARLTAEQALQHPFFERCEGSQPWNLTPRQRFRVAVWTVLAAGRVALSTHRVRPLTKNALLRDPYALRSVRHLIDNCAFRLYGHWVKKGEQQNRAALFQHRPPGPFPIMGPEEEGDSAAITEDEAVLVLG

Block 1
SMILES: CCn1cnc2c(Nc3cccc(Cl)c3)nc(N[C@H]3CCCC[C@H]3N)nc21
Effect on: enzyme activity
Mode: inhibitor
Tested at: 0.5 µM
Baseline: control
| target | remaining activity [%] |
| --- | --- |
| Phosphorylase b kinase gamma catalytic chain, liver/testis isoform (PHKG2, Homo sapiens, UniProt P15735) | 85.6 |
| Receptor-interacting serine/threonine-protein kinase 2 (RIPK2, Homo sapiens, UniProt O43353) | 70 |
| Serine/threonine-protein kinase TAO1 (TAOK1, Homo sapiens, UniProt Q7L7X3) | 90.2 |
| Tyrosine-protein kinase HCK (HCK, Homo sapiens, UniProt P08631) | 69.6 |
| Insulin receptor-related protein (INSRR, Homo sapiens, UniProt P14616) | 90.7 |
| Serine/threonine-protein kinase D3 (PRKD3, Homo sapiens, UniProt O94806) | 90.6 |
| BDNF/NT-3 growth factors receptor (NTRK2, Homo sapiens, UniProt Q16620) | 55.3 |
| Serine/threonine-protein kinase ULK1 (ULK1, Homo sapiens, UniProt O75385) | 74.5 |
| Mitogen-activated protein kinase kinase kinase 9 (MAP3K9, Homo sapiens, UniProt P80192) | 54.9 |
| Dual specificity tyrosine-phosphorylation-regulated kinase 2 (DYRK2, Homo sapiens, UniProt Q92630) | 107 |
| Mitogen-activated protein kinase kinase kinase kinase 5 (MAP4K5, Homo sapiens, UniProt Q9Y4K4) | 91.1 |
| Serine/threonine-protein kinase PLK1 (PLK1, Homo sapiens, UniProt P53350) | 86 |

Block 2
Target: Eukaryotic initiation factor 4A-I (EIF4A1, Homo sapiens, UniProt P60842)
UniProt P60842, sequence (whole entry, looked up): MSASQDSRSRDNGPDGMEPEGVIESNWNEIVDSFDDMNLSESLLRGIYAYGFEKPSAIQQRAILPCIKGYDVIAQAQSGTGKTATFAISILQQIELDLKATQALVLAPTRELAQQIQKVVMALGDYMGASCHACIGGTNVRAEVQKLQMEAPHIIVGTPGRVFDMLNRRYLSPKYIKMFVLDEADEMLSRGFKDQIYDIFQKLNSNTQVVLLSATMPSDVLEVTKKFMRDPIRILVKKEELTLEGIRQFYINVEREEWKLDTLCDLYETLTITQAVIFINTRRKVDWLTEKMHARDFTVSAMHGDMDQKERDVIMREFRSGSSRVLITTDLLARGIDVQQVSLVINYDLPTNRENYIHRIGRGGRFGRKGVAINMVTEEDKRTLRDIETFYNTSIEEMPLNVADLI
Effect on: RNA clamping
Technique: fluorescence polarization
Tested at: concentration not given
Together with: FAM-labelled poly r(AG)8 RNA
Direction: higher = more clamping
| Structure (SMILES) | fluorescence polarization change |
| --- | --- |
| COC(=O)[C@@H]1[C@@H](c2ccccc2)[C@]2(c3ccc(OC)cc3)Oc3cc(OC)cc(OC)c3[C@@]23OC(c2ccc(Cl)cc2)=N[C@@]13O | -0.4 mP |
| COC(=O)[C@H]1[C@H](c2ccccc2)[C@]2(c3ccc(OC)cc3)Oc3cc(OC)cc(OC)c3[C@@]23OC(c2ccccc2)=N[C@@]13O | -1.2 mP |
| COC(=O)[C@H]1[C@H](c2ccccc2)[C@@]2(c3ccc(Br)cc3)Oc3cc(OC)cc(OC)c3[C@]1(O)[C@H]2O | 10.6 mP |
| COc1cc(OC)c2c(c1)O[C@@]1(c3ccc(Br)cc3)[C@H](c3ccccc3)C[C@@H](O)[C@@]21O | 28.7 mP |
| COC(=O)[C@@H]1[C@@H](c2ccccc2)[C@]2(c3ccc(OC)cc3)Oc3cc(OC)cc(OC)c3[C@@]23NC(C(C)(C)C)=N[C@@]13O | 64.5 mP |
| COc1ccc([C@@]23Oc4cc(OC)cc(OC)c4[C@@]24NC(C)=N[C@@]4(O)[C@H](C(=O)N(C)C)[C@H]3c2ccccc2)cc1 | 92.4 mP |
| COC(=O)[C@@H]1[C@@H](c2ccccc2)[C@]2(c3ccc(OC)cc3)Oc3cc(OC)cc(OC)c3[C@@]23OC(c2ccc(OC)cc2)=N[C@@]13O | -7.7 mP |
| COc1ccc([C@@]23Oc4cc(OC)cc(OC)c4[C@]2(O)c2nc(-c4ccc(C(F)(F)F)cc4)[nH]c(=O)c2[C@H]3c2ccccc2)cc1 | -2.2 mP and 12.9 mP |
| COc1ccc([C@@]23Oc4cc(OC)cc(OC)c4[C@]2(O)c2nc(-c4ccc(O)cc4)[nH]c(=O)c2[C@H]3c2ccccc2)cc1 | 23.2 mP |

Block 3
SMILES: O=C1CCC(N2Cc3c(ccc4c3OCC43CCN(Cc4ccccc4)CC3)C2=O)C(=O)N1 (stereo not shown)
Mode: degrader
Technique: HiBiT
Cells: HEK293
Time: 6 h
CSNK1A1: Casein kinase I isoform alpha (CSNK1A1, Homo sapiens, UniProt P48729)
UniProt P48729, sequence (whole entry, looked up): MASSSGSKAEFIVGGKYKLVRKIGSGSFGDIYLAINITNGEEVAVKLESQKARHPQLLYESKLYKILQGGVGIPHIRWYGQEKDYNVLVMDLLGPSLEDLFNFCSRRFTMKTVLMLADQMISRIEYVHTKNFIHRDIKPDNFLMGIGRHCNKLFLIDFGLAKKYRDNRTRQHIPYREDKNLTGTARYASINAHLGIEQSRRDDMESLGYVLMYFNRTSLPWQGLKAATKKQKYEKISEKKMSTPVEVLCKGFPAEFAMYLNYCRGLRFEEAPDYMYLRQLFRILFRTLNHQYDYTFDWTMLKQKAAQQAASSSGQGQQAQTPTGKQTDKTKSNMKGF
Zinc finger protein Aiolos: Zinc finger protein Aiolos (Homo sapiens, UniProt Q9UKT9)
UniProt Q9UKT9, sequence (whole entry, looked up): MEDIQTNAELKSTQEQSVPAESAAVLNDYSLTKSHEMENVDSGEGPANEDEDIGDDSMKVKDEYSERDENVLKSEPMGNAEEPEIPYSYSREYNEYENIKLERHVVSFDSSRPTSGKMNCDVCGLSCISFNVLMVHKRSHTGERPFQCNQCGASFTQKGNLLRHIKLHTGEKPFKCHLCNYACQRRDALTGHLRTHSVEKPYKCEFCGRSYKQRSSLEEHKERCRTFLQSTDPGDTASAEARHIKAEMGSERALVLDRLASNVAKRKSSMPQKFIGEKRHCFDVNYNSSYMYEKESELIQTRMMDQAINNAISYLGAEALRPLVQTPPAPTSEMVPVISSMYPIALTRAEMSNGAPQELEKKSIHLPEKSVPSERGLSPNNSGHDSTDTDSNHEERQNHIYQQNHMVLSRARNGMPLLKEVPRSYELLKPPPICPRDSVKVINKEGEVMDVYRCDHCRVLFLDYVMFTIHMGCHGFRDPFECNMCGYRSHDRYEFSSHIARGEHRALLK
DNA-binding protein Ikaros: DNA-binding protein Ikaros (Homo sapiens, UniProt Q13422)
UniProt Q13422, sequence (whole entry, looked up): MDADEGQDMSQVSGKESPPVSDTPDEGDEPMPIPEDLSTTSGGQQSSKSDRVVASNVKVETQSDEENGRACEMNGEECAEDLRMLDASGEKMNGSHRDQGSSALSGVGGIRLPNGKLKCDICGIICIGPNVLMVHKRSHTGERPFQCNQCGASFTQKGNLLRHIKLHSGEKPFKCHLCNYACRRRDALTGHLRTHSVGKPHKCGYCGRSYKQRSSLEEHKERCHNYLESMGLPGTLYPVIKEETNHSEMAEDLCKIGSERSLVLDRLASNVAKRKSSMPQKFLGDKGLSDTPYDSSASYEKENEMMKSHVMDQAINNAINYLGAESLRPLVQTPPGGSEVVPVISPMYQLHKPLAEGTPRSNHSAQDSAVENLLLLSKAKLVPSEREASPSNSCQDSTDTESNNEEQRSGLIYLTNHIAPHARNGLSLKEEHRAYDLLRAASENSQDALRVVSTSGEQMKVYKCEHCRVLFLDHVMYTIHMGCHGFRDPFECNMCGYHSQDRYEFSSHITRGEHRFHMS
GSPT1: Eukaryotic peptide chain release factor GTP-binding subunit ERF3A (GSPT1, Homo sapiens, UniProt P15170)
UniProt P15170, sequence (whole entry, looked up): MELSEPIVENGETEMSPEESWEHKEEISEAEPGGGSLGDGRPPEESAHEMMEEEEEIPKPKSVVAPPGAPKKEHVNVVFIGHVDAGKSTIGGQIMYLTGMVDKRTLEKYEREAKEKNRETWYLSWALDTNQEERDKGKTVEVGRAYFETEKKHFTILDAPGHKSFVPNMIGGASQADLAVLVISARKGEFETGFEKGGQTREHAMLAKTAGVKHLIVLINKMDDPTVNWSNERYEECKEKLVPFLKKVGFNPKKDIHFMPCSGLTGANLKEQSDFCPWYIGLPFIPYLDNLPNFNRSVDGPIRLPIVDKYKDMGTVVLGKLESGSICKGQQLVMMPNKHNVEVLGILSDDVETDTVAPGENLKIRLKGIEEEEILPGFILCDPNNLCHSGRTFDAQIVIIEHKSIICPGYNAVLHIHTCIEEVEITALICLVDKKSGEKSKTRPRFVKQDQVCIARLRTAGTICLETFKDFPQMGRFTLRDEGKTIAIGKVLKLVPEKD
SALL4: Sal-like protein 4 (SALL4, Homo sapiens, UniProt Q9UJQ4)
UniProt Q9UJQ4, sequence (whole entry, looked up): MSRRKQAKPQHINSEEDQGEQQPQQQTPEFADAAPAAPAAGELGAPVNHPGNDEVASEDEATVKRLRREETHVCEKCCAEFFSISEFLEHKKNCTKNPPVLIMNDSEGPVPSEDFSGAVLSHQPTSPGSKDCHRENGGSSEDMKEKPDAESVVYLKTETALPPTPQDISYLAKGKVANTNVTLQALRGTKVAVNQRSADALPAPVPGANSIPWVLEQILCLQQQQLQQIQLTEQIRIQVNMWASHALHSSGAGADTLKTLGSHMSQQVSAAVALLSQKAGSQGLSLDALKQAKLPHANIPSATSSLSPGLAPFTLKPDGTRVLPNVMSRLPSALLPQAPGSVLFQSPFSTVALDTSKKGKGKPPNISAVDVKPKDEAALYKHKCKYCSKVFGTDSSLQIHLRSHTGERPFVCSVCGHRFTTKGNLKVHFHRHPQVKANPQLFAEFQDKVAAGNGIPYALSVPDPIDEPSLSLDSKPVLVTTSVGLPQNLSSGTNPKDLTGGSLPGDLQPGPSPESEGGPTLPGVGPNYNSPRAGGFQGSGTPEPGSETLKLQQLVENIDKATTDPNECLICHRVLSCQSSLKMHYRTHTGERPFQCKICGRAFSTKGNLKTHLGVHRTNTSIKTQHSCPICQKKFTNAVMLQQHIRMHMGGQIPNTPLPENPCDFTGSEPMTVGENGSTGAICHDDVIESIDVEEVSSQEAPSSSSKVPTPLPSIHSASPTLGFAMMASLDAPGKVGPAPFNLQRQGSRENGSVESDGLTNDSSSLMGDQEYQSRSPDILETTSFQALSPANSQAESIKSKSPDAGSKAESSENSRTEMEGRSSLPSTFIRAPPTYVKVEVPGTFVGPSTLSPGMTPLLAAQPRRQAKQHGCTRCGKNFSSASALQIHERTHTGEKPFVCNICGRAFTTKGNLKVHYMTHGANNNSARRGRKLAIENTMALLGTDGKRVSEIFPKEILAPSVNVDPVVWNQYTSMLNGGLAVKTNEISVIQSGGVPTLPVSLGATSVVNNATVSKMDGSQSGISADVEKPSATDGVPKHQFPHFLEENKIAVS
| target | setting | remaining protein |
| --- | --- | --- |
| CSNK1A1 | 0.0005081 µM | 104% |
| Zinc finger protein Aiolos | 10 µM | 105% |
| DNA-binding protein Ikaros | 0.004572 µM | 94.7% |
| GSPT1 | 0.001524 µM | 109% |
| DNA-binding protein Ikaros | 0.001524 µM | 104% |
| DNA-binding protein Ikaros | 0.3704 µM | 99% |
| Zinc finger protein Aiolos | 0.0005081 µM | 106% |
| CSNK1A1 | 0.04115 µM | 104% |
| GSPT1 | 0.01372 µM | 104% |
| SALL4 | 10 µM | 78.2% |
| SALL4 | 0.0001694 µM | 100% |
| GSPT1 | 3.333 µM | 120% |
| Zinc finger protein Aiolos | 0.0001694 µM | 92.8% |
| DNA-binding protein Ikaros | 3.333 µM | 99.1% |
| GSPT1 | 10 µM | 120% |
| CSNK1A1 | 0.0001694 µM | 105% |
| GSPT1 | 0.0001694 µM | 105% |
| SALL4 | 0.04115 µM | 81.3% |
| DNA-binding protein Ikaros | 0.1235 µM | 102% |
| DNA-binding protein Ikaros | 10 µM | 107% |
| Zinc finger protein Aiolos | 1.111 µM | 112% |
| SALL4 | 0.001524 µM | 102% |
| Zinc finger protein Aiolos | 0.01372 µM | 104% |
| Zinc finger protein Aiolos | 0.001524 µM | 101% |
| GSPT1 | 0.04115 µM | 109% |

Block 4
Cell line: A-375
Tested at: 100 µM
Time: 36 h
| SMILES | viability |
| --- | --- |
| Oc1cc(Cl)ccc1Oc1ccc(Cl)cc1Cl | -1.04% |
| Cc1ccc(NC(=O)C2(c3ccc4c(c3)OC(F)(F)O4)CC2)nc1-c1cccc(C(=O)O)c1 | 96% |
| c1ccc(NNc2ccccc2)cc1 | 37% |
| CN1C[C@H](C(=O)N[C@]2(C)O[C@@]3(O)[C@@H]4CCCN4C(=O)[C@H](Cc4ccccc4)N3C2=O)C=C2c3cccc4[nH]cc(c34)C[C@H]21 | 38.8% |
| C[C@@H](CO)NC(=O)[C@@H]1C=C2c3cccc4[nH]cc(c34)C[C@H]2N(C)C1 | 115% |
| CCN(CC)C(C)C(=O)c1ccccc1 (stereo not shown) | 93.3% |

For quick reference, copied from above (block 1):
| target | remaining activity [%] |
| --- | --- |
| Serine/threonine-protein kinase TAO1 (TAOK1, Homo sapiens, UniProt Q7L7X3) | 90.2 |
| Tyrosine-protein kinase HCK (HCK, Homo sapiens, UniProt P08631) | 69.6 |
| Insulin receptor-related protein (INSRR, Homo sapiens, UniProt P14616) | 90.7 |
| Serine/threonine-protein kinase D3 (PRKD3, Homo sapiens, UniProt O94806) | 90.6 |
| BDNF/NT-3 growth factors receptor (NTRK2, Homo sapiens, UniProt Q16620) | 55.3 |
